Published values from different studies.
Compare with care: the assays were run in different laboratories. Values joined by “and” are separate records of one study, mostly repeats; a detail may differ. Numbers after ± are the reported error.

For `COc1ccc(NC(=O)c2ccc3[nH]c(-c4ccc(N(C)C)cc4)nc3c2)cn1`, “dead cell to confluence ratio” read 40.2 and 198 and 117 (HCT116; IncuCyte; concentration not given, 14 h).
`CN1CCCNC(=O)c2cccc(c2)C(=O)NCCCN(C)CCCNc2cccc3c2C(=O)c2cccc(c2C3=O)NCCC1`: “log2 fold change” -0.925 (SAS; RNA-Seq, refers to: CHD1 mRNA; 1 µM, 6 h; reference: untreated cells).
`CC(=O)Oc1ccccc1C(=O)[Se]CC(=O)Nc1cccc(C(F)(F)F)c1` gave a mean TGI of 13.3 µM (NCI60 prostate subpanel (PC-3, DU-145); total growth inhibition, inhibitor; five-dose).
For `CCN(CC)CC(=O)Nc1cccc(-n2cc(-c3ccc4ccc(-c5cn(-c6cccc(NC(=O)CN(CC)CC)c6)nn5)cc4c3)nn2)c1`, the fold regulation was 1.06 (RCC4; PCR array, refers to: HGF; 5 x IC50, 4 h, normoxia; reference: untreated).
With `Cc1cccc(-c2cccc(C)n2)n1.Cc1cccc(-c2cccc(C)n2)n1.F[P-](F)(F)(F)(F)F.F[P-](F)(F)(F)(F)F.[Ru+2].c1cc2ccc3ccc(-c4nc5c6cccnc6c6ncccc6c5[nH]4)c4ccc(c1)c2c34` the phototoxicity index was 12 (SK-MEL-28; normoxia, together with: green light 523 nm, 100 J/cm2; reference: dark over light EC50).
For `O=C(N1CCCC1)n1cc(-c2ccc(-c3ccccc3)cc2)nn1`, “SILAC ratio per peptide” read 1.11 and 0.96 and 1.08 (mouse T cells; N-terminal labelling proteomics, refers to: Serf2 N-terminal peptide; 0.001 µM, 6 h; reference: DMSO).
For `CSC(=S)N/N=C(\C)c1ccc(Nc2nnc(-c3ccc(Cl)cc3)c3ccccc23)cc1`, the cell death was 0.909% (HepG2; cell growth or viability, MTT; 78 nM).
For `Cc1cc(Cl)cc(-c2ccnc3cc(CN4C(=O)C5C(C4=O)C5(C)C)sc23)c1C[C@@H]1CNCCO1` (stereo partly drawn), the viable cells was 89.6% and 88% and 81.6% (CHP-212 resistant subline R3; annexin V/PI flow cytometry; 0.3 µM, 48 h).
`Cc1cc(NC2CCN(C)CC2)ccc1-c1cc2c(N3CCC[C@H](C(=O)NCc4ccc(OC(F)(F)F)cc4)C3)ncnc2[nH]1` has an inhibition of 69.7% (NCI-H3122; cell growth or viability, MTT; 1 µg/mL, 72 h).
For `COc1ccccc1-c1ccncc1C(=O)Nc1nnc(OCc2ccc(Cl)cc2)s1`, the colony count was 70.5 and 80.5 (DLD-1 parental; 8 µM, mean of replicates).
With `CO[C@@H]1[C@@H](OC(=O)c2ccc(C)[nH]2)[C@@H](O)[C@H](Oc2ccc3c(O)c(NC(=O)c4c[nH]c(C(=O)Nc5c(O)c6ccc(O[C@@H]7OC(C)(C)[C@H](OC)[C@@H](OC(=O)c8ccc(C)[nH]8)[C@H]7O)c(C)c6oc5=O)c4C)c(=O)oc3c2C)OC1(C)C` the cell number was 53% (HaCaT Tet-On cells, uninduced; 7.5 µM; reference: DMSO).
With `CC(C)c1ccc(N(C)c2ccc3c(c2)OCC[C@H]3CNc2cnccc2C(=O)O)cc1` the IC50 was 0.0106 µM (NUGC-4; cell growth or viability, ATP luminescence; 7 days).
`O=C(C[Se]C(=O)c1cc2ccccc2s1)Nc1cccc(C(F)(F)F)c1` has a GI50 of 1.43 µM (NCI60 prostate subpanel (PC-3, DU-145); cell growth, inhibitor; five-dose).
The colony survival of `CO[C@@H]1[C@@H](OC(N)=O)[C@@H](O)[C@H](Oc2ccc3c(O)c(NC(=O)c4ccc(O)c(CC=C(C)C)c4)c(=O)oc3c2C)OC1(C)C` is reported as 94.2% (HCT-116 BRCA2 wild-type; 150 µM, replicate A; reference: untreated).
`C[C@@H](Nc1c(-c2c(F)cc(C#N)cc2F)c(Cl)nc2ncnn12)C(C)(C)C` — result for “minimum effective concentration”: 0.3 µM (QBI293; microtubule stabilization, ELISA, refers to: acetylated α-tubulin; 4 h).
With `CN(C)c1ccc(-n2cc(COC(=O)[C@@]3(C)C=C(C(=O)OC(C)(C)C)C(=O)CC3)nn2)cc1` the pERK/ERK ratio was 0.226 (HeLa; quantitative western blot; concentration not given, 15 (unit not given), together with: EGF).
The internalized fraction of `COc1cccc(OC)c1-c1cc(C(=O)NC2(C(=O)O)C3CC4CC(C3)CC2C4)nn1-c1ccc(C(=O)N(C)CCCN(C)C(=O)[C@H](CCCCNC(=O)[C@H](CC(C)C)NC(=O)C2OC2C(=O)O)NC(=O)CN2CCN(CC(=O)[O-])CCN(CC(=O)[O-])CCN(CC(=O)[O-])CC2)cc1C(C)C.[177Lu+3]` (mixture of isomers) is reported as 4.64 ± 0.24% (HT-29; concentration not given, 60 min; reference: added activity).
Under “log2 fold change”, `COC1CN([C@H]2CC[C@H]([C@@]3(C)Oc4c(Cl)cc(C(=O)NCc5c(SC)cc(C)[nH]c5=O)c(C)c4O3)CC2)C1` is recorded as 4.74 (RNA-seq, refers to: TFPI2; human, whole blood; dose not given, 24 h; reference: pretreatment baseline).
For `O=C(C[Se]C(=O)c1ccccc1Nc1cccc(C(F)(F)F)c1)Nc1cccc(C(F)(F)F)c1`, the TGI was 3.94 µM (NCI60 breast subpanel mean; cell growth).
For `CNS(=O)(=O)Nc1nccc(Cc2c(C)c3ccc(Oc4ncccc4F)cc3oc2=O)c1F`, the IC50 was 0.032 µM (EBC-1; cell viability; 7 days).
`CSCC[C@H](NC(=O)[C@H](CCC(N)=O)NC(=O)[C@H](CCCCN)NC(=O)[C@H](CCCNC(=N)N)NC(=O)[C@H](Cc1ccc(O)cc1)NC(=O)[C@H](CCCNC(=N)N)NC(=O)[C@H](CO)NC(=O)[C@H](Cc1ccc(O)cc1)NC(=O)[C@H](CO)NC(=O)[C@H](CC(=O)O)NC(=O)[C@@H](NC(=O)[C@@H](N)Cc1ccccc1)[C@@H](C)O)C(=O)N[C@@H](C)C(=O)N[C@H](C(=O)N[C@@H](CCCCN)C(=O)N[C@@H](CCCCN)C(=O)N[C@@H](Cc1ccc(O)cc1)C(=O)N[C@@H](CC(C)C)C(=O)N[C@@H](C)C(=O)N[C@@H](C)C(=O)N[C@H](C(=O)N[C@@H](CC(C)C)C(=O)NCC(=O)N[C@@H](CCCCN)C(=O)N[C@@H](CCCNC(=N)N)C(=O)N[C@@H](Cc1ccc(O)cc1)C(=O)N[C@@H](CCCCN)C(=O)N[C@@H](CCC(N)=O)C(=O)N[C@@H](CCCCn1cc(C[C@H](NC(=O)CNC(=O)[C@H](CO)NC(=O)[C@H](CCCNC(=N)N)NC(=O)[C@H](CO)NC(=O)[C@H](CC(C)C)NC(=O)[C@H](CC(C)C)NC(=O)CNC(=O)[C@H](C)NC(=O)[C@H](CC(C)C)NC(=O)[C@H](CCCNC(=N)N)NC(=O)[C@H](Cc2c[nH]cn2)NC(=O)[C@@H](NC(=O)[C@@H](N)C(C)C)[C@@H](C)O)C(=O)N[C@H](C(=O)N[C@H](C(=O)N[C@@H](CCCCN)C(=O)N[C@@H](CC(N)=O)C(=O)N[C@@H](CC(N)=O)C(=O)N[C@@H](Cc2ccccc2)C(=O)N[C@H](C(=O)N2CCC[C@H]2C(=O)N[C@H](C(=O)N[C@@H](CC(N)=O)C(=O)N[C@H](C(=O)NCC(=O)N[C@@H](CO)C(=O)N[C@@H](CCCCN)C(=O)N[C@@H](C)C(=O)N[C@@H](Cc2ccccc2)C(N)=O)C(C)C)[C@@H](C)O)C(C)C)C(C)C)C(C)C)nn1)C(=O)N[C@H](C(=O)N[C@@H](CCCCN)C(=O)N[C@@H](CC(N)=O)C(=O)N[C@@H](CCCCN)C(N)=O)C(C)C)C(C)C)C(C)C` has a pA2 of 5.45 (transfected COS-7 cells; cAMP accumulation, antagonist; together with: VIP).
`O=C(C[Se]C(=O)C12CC3CC(CC(C3)C1)C2)Nc1cccc(C(F)(F)F)c1` gave a TGI of 17.3 µM (NCI60 breast subpanel mean; cell growth).
`CCN(C(=O)c1cc(F)ccc1Oc1nncnc1N1CCC2(C1)CN([C@H](CCCN(C)CCOC)C(C)C)C2)C(C)C` gave a GI50 of greater than 10 µM (RD; muscle; 168 h).
`CN(C)C(=O)c1cc2cnc(Nc3ccc(N4CCNCC4)cn3)nc2n1C1CCCC1`: “peak intracellular calcium” 290 ± 9.56 nM (human neutrophils; Fluo-3/AM fluorescence; 10 µM, together with: fMLF 0.1 µM).
`C=CC(=O)N1CCC[C@@H](n2nc(-c3ccc(Oc4ccccc4)cc3)c3c(N)ncnc32)C1` gave a GI50 of greater than 10 µM (U2932; cell growth or viability, WST-1; 72 h).
`Cc1cccc(-c2cccc(C)n2)n1.Cc1cccc(-c2cccc(C)n2)n1.F[P-](F)(F)(F)(F)F.F[P-](F)(F)(F)(F)F.[Ru+2].c1ccc2c(-c3nc4c5cccnc5c5ncccc5c4[nH]3)c3ccccc3cc2c1` has a phototoxicity index of 99 (SK-MEL-28; normoxia, together with: blue light 453 nm, 100 J/cm2; reference: dark over light EC50).
Under “mean growth percent”, `O=C(C[Se]C(=O)c1ccccc1Nc1ccccc1)Nc1cccc(C(F)(F)F)c1` is recorded as -78.6% (NCI60 prostate subpanel (PC-3, DU-145); cell growth; 10 µM, 48 h, one-dose).
For `COC1=C2CC(C)CC(OC)C(O)C(C)C=C(C)C(OC(N)=O)C(OC)C=CC=C(C)C(=O)NC(=CC1=O)C2=O` (stereo not drawn), “log fold change” read -0.505 (Rh30; ChIP-seq, refers to: H3K36me3 peak; concentration not given, BARD1 intron chr2:215588800-215611399; reference: untreated control).
`Cn1ncc2cc(-c3cncc(Cl)c3N3CCC4(CCNC4=O)CC3)ccc21` — result for “log2 fold change”: -1.17 (LS174T; gene expression, microarray, refers to: GSDMA mRNA; concentration not given, 4 h; reference: untreated cells).
`COC(=O)c1cc(NC2=NC(=O)C(=Cc3ccc(C)cc3)S2)ccc1OC(C)=O` has a metabolite level of -0.71 fold change (MCF7; GC-MS, refers to: Trimethylamine; 1 µM; reference: DMSO).
`O=C(O)c1ccc(-c2ccc(O)cc2)c2c1C=C(c1ccc(O)cc1)OC2(c1ccc(O)cc1)c1ccc(O)cc1` gave an apoptotic cells of 22.2% (NCI-H460; annexin V/PI flow cytometry; 20 µM, 24 h).
`Cc1ncsc1-c1ccc(C(C)NC(=O)C2CC(O)CN2C(=O)C(NC(=O)CCCCCCCCCCN2CCCC(Nc3ncc(Cl)c(Nc4ccccc4S(=O)(=O)C(C)C)n3)C2)C(C)(C)C)cc1` (stereo not drawn) — result for “log2 fold change”: -1.8 (22Rv1; RNA-seq, refers to: ZNF691 mRNA; concentration not given; reference: DMSO).
With `Cc1cc(NC2CCN(C)CC2)ccc1-c1cc2c(N3CCC[C@H](C(=O)N[C@H](C)c4ccccc4)C3)ncnc2[nH]1` the inhibition was 16.8% (NCI-H3122; cell growth or viability, MTT; 0.04 µg/mL, 72 h).

Excerpt of the above:
With `Cc1cc(NC2CCN(C)CC2)ccc1-c1cc2c(N3CCC[C@H](C(=O)N[C@H](C)c4ccccc4)C3)ncnc2[nH]1` the inhibition was 16.8% (NCI-H3122; cell growth or viability, MTT; 0.04 µg/mL, 72 h).
`Cc1cc(NC2CCN(C)CC2)ccc1-c1cc2c(N3CCC[C@H](C(=O)NCc4ccc(OC(F)(F)F)cc4)C3)ncnc2[nH]1` has an inhibition of 69.7% (NCI-H3122; cell growth or viability, MTT; 1 µg/mL, 72 h).
For `CSC(=S)N/N=C(\C)c1ccc(Nc2nnc(-c3ccc(Cl)cc3)c3ccccc23)cc1`, the cell death was 0.909% (HepG2; cell growth or viability, MTT; 78 nM).
With `Cc1cccc(-c2cccc(C)n2)n1.Cc1cccc(-c2cccc(C)n2)n1.F[P-](F)(F)(F)(F)F.F[P-](F)(F)(F)(F)F.[Ru+2].c1cc2ccc3ccc(-c4nc5c6cccnc6c6ncccc6c5[nH]4)c4ccc(c1)c2c34` the phototoxicity index was 12 (SK-MEL-28; normoxia, together with: green light 523 nm, 100 J/cm2; reference: dark over light EC50).
